Results pooled from the literature.
Each line is one published result; not all experiments were run side by side. ± marks the error that the study gave.

Protein sequences, listed by entry. Tags and fused reporters are not part of them. Lines headed by an entry give the natural chain unless they say otherwise; changes in a name come on top. Residues count along the entry.
UniProt O75460, whole entry, looked up: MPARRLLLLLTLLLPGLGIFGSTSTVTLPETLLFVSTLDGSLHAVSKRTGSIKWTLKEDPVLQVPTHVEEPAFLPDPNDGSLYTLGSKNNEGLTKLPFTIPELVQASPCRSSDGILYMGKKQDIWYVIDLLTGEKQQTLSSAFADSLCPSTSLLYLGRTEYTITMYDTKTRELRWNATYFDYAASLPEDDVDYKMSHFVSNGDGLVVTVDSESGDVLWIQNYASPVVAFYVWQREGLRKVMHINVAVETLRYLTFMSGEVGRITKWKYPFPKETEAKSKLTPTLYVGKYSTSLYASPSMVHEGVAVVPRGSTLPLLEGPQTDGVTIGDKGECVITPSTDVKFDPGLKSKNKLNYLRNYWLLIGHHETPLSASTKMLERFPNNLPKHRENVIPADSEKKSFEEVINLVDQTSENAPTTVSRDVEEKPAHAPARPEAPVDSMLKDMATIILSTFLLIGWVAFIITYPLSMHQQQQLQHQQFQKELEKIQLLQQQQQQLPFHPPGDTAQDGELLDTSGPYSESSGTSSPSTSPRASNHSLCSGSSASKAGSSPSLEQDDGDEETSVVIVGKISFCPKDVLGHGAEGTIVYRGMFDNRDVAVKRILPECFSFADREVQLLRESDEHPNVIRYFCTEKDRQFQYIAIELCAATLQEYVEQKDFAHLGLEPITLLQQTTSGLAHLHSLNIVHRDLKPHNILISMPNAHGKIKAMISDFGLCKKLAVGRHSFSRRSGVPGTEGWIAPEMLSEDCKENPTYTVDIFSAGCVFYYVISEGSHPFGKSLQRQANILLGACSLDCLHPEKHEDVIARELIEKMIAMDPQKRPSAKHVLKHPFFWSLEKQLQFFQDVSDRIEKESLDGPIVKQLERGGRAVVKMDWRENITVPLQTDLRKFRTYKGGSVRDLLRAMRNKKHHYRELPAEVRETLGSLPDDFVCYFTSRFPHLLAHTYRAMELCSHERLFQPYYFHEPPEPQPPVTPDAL
UniProt Q92630, whole entry: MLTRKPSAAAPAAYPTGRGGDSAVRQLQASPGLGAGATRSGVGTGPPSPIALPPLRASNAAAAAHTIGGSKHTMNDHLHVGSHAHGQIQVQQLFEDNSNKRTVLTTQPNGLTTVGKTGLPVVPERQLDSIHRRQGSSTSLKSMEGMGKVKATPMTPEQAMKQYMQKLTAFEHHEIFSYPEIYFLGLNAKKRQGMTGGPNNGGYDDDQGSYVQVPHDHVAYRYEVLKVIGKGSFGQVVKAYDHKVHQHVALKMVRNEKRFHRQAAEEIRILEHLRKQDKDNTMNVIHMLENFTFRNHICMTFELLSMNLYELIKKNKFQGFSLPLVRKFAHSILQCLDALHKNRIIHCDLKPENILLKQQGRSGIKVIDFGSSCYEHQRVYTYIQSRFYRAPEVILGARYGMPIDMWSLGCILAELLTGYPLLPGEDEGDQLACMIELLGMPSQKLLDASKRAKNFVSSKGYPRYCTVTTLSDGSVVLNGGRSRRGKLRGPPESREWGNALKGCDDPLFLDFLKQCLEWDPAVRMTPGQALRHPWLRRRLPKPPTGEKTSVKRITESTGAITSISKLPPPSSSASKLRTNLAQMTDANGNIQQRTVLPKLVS
UniProt P07949, whole entry, looked up, stated change not applied: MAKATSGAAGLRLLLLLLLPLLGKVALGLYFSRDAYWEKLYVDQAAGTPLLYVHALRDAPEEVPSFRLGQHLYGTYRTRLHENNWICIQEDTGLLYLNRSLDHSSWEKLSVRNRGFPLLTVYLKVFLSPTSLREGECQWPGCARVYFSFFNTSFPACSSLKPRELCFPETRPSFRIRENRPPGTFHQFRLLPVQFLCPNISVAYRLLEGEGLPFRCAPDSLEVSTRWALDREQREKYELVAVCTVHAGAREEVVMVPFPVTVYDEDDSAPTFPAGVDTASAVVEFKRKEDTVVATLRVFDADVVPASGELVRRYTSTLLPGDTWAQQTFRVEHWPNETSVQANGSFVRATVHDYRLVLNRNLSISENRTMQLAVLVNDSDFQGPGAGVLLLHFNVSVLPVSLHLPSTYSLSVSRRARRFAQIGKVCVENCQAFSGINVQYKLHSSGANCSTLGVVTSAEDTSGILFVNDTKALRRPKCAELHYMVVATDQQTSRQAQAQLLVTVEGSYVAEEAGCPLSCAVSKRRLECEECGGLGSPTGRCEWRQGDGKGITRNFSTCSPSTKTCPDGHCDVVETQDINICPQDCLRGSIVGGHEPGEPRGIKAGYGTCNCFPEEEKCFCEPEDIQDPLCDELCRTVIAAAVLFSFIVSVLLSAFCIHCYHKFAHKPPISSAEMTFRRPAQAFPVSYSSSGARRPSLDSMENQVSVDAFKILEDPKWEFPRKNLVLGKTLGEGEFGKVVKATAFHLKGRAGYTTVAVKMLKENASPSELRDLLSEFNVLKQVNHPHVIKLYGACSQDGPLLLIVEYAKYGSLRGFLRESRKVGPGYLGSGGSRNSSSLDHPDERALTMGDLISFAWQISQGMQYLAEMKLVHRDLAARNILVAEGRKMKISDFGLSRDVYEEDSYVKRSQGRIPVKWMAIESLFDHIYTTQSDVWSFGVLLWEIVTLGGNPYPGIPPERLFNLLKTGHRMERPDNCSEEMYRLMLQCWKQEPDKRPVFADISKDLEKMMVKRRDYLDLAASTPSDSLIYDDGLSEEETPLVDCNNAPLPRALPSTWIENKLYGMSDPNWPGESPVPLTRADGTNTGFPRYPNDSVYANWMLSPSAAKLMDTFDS
UniProt P33176, whole entry, looked up: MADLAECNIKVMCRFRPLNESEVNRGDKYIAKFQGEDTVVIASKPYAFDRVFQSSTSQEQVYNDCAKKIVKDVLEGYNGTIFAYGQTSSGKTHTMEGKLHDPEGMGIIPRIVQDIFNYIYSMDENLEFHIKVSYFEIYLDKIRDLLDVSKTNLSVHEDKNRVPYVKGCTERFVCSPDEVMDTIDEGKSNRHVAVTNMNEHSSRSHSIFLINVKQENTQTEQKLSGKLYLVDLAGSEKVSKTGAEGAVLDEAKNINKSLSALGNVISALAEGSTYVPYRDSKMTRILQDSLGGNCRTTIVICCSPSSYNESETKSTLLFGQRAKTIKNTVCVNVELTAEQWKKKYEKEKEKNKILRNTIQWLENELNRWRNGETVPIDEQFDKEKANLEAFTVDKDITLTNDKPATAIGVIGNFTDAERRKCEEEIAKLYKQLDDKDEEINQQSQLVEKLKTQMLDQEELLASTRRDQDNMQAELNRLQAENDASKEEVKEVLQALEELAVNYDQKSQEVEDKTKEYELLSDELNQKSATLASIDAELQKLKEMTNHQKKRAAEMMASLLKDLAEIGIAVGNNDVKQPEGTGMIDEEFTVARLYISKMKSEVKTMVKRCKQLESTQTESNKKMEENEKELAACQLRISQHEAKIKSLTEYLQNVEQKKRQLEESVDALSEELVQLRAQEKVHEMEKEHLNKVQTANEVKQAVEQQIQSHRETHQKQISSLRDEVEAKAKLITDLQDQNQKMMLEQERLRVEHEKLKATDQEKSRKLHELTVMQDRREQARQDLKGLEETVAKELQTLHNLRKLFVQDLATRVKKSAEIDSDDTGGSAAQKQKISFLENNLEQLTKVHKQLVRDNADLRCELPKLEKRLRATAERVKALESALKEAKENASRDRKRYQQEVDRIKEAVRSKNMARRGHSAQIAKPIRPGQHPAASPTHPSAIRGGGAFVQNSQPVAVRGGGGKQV
UniProt P05067, 672-713 limits assumed: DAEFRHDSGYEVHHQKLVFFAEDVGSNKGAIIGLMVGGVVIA
UniProt P05067, whole entry, looked up: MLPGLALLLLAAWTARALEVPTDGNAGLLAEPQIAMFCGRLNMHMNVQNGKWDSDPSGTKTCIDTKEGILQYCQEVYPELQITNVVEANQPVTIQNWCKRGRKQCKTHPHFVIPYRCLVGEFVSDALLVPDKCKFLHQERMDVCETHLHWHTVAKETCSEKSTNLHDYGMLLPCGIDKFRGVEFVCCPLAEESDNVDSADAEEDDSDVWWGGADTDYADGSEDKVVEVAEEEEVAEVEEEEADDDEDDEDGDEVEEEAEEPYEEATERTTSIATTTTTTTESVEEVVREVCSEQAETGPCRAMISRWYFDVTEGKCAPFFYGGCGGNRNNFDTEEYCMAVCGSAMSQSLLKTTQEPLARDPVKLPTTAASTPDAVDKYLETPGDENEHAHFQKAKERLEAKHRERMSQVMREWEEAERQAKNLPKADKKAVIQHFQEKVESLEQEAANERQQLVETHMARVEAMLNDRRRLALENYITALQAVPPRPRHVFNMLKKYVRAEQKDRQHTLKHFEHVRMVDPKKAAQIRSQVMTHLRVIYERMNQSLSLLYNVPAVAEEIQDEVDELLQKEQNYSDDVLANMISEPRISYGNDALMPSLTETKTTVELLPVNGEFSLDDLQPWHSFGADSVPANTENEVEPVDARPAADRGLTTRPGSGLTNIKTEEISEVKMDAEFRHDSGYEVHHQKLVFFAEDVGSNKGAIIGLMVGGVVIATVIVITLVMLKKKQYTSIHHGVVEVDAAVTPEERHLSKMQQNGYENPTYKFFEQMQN
UniProt Q9UBN7, whole entry: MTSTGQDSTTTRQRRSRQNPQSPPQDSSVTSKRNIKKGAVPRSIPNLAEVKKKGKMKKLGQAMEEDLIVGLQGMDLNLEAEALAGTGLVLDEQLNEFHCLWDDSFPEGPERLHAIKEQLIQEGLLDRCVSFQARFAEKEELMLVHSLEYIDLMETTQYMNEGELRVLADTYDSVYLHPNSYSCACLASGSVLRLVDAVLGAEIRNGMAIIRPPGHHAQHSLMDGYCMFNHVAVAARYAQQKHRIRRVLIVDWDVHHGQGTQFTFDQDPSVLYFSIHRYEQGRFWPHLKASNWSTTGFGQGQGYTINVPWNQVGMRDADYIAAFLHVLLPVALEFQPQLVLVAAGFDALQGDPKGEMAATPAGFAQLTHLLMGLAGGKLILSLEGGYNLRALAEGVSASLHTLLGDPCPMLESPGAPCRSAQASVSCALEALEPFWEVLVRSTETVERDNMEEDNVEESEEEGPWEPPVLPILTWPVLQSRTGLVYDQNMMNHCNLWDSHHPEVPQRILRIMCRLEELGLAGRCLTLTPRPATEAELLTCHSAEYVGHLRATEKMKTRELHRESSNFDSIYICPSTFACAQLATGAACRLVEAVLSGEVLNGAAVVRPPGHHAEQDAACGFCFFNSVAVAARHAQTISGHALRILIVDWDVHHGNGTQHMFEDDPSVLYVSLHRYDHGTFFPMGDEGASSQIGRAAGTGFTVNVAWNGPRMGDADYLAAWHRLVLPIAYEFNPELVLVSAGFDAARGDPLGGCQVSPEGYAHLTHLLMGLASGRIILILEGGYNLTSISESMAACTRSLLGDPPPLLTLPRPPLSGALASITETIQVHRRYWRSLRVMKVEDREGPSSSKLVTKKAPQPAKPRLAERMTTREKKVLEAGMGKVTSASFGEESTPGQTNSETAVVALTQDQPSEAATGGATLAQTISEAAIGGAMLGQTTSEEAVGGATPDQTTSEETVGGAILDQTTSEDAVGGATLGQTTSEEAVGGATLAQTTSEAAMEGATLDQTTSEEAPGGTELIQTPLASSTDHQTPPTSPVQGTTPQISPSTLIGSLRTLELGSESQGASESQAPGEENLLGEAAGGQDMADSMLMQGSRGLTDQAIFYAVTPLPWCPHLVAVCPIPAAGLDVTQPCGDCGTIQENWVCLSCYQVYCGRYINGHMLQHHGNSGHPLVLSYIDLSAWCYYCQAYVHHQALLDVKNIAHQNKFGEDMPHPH
UniProt P11362, 22-822 limits assumed: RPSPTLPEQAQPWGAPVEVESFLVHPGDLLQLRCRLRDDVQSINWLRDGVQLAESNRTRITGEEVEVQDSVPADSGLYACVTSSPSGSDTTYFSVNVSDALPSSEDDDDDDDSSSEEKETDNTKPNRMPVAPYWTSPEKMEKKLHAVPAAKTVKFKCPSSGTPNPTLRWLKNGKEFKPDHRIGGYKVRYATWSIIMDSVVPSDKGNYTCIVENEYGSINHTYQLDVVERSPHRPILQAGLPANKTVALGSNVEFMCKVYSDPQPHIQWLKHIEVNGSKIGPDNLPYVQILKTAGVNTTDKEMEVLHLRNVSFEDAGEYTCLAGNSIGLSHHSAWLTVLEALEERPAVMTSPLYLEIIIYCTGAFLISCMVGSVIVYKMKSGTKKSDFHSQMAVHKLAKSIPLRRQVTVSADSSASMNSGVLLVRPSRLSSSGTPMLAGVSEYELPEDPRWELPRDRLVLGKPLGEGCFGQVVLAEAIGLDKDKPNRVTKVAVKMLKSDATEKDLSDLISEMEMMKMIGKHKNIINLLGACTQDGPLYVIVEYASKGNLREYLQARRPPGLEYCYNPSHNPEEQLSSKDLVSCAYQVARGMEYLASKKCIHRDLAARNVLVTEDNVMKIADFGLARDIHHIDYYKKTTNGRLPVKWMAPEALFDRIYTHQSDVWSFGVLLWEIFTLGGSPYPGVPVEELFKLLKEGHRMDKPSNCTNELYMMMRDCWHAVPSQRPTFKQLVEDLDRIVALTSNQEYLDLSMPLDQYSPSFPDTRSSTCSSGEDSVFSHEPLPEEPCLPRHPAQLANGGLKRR

SMILES | target | assay | system | setting | IC50
COc1ccccc1C(=O)Nc1ccc(-c2nc3ccc(NC(=O)c4ccccc4OC)cc3s2)cc1 | Moesin, with CD44 (Homo sapiens, UniProt P26038) | MSN-CD44 interaction, inhibitor, TR-FRET | – | together with: CD44 | 47700 nM
CN(C)CCCNc1c2ccc(N(C)C)cc2nc2cc(N(C)C)ccc12 | Serine/threonine-protein kinase/endoribonuclease IRE1 (ERN1, Homo sapiens, UniProt O75460) | RNase activity, inhibitor, FRET | – | 90 min preincubation, together with: XBP-1 RNA | 2530 nM
CN1CC[C@H](c2c(O)cc(O)c3c(=O)cc(-c4ccccc4F)oc23)[C@H](O)C1 | Cyclin-dependent kinase 5, with p35 (CDK5, Homo sapiens, UniProt Q00535) | – | – | ATP at Km | 86 nM
FC(F)(F)c1ccccc1CCN1CCN(c2cc(N3CCCC3)nc(N3CCCC3)n2)CC1 | Caspase-1 (CASP1, Homo sapiens, UniProt P29466) | enzyme activity, inhibitor | – | 30 min preincubation, together with: Ac-WEHD-AMC 10 µM | 197 ± 25 nM
N#Cc1ccccc1NC(=O)CSc1nc(-c2ccccc2)cc(C(F)(F)F)c1C#N | Trace amine-associated receptor 1 (TAAR1, Homo sapiens, UniProt Q96RJ0) | – | – | – | > 10000 nM
COc1cc2c(SCCCN)c3ccccc3nc2cc1Cl | Dual specificity tyrosine-phosphorylation-regulated kinase 2 (DYRK2, Homo sapiens, UniProt Q92630) | inhibitor | – | together with: Woodtide peptide | 9400 nM
N[C@@H](c1nc2cc(-c3ccncc3F)sc2c(=O)[nH]1)C1CC1 | Cell division cycle 7-related protein kinase (CDC7, Homo sapiens, UniProt O00311) | enzyme activity, inhibitor | – | – | 612 ± 42.8 nM
CN1CCN(Cc2ccc(NC(=O)c3cncc(C#Cc4cncc5ncccc45)c3)cc2C(F)(F)F)CC1 | Kinesin-1 heavy chain/ Tyrosine-protein kinase receptor RET (RET/KIF5B, Homo sapiens, UniProt P07949+P33176, G810R) | cell viability, inhibitor, CellTiter-Glo | Ba/F3 KIF5B-RET G810R | – | 14.1 ± 0.44 nM
CC(C)OC(=O)CCC(C(=O)/C=C/c1ccc(O)c(OC(F)(F)F)c1)C(=O)/C=C/c1ccc(O)c(OC(F)(F)F)c1 | Amyloid-beta precursor protein, Aβ aggregates (APP, Homo sapiens, UniProt P05067) | binding, thioflavin T competition | – | – | 390 nM
CC(=O)N(CC#Cc1cccc(C(N)=O)c1)C[C@H]1C[C@@H](n2ccc3c(Cl)ncnc32)[C@H](O)[C@@H]1O | N-terminal Xaa-Pro-Lys N-methyltransferase 1 (Homo sapiens, UniProt Q9BV86) | enzyme activity, inhibitor, SAHH-coupled fluorescence | – | – | > 100000 nM
CC(=O)Nc1cc(Nc2cc(NC3CC3)n3ncc(C#N)c3n2)ccc1N1CCOCC1 | Casein kinase II subunit alpha (CSNK2A1, Homo sapiens, UniProt P68400) | target engagement, NanoBRET | HEK293 | – | 67 nM
N#Cc1ccc2[nH]cc(/C=C/c3ccc(CO)cc3)c2c1 | Indoleamine 2,3-dioxygenase 1 (IDO1, Homo sapiens, UniProt P14902) | enzyme activity, inhibitor | – | – | 12300 nM
CC(C)C[C@H](NC(=O)c1cc(C(=O)O)cc([C@H]2CCN[C@@H]2C(=O)O)c1)C(=O)O | kainate receptor (rat) | binding, radioligand binding | rat cortical synaptosomes | together with: [3H]kainate | 66000 nM
O=C(NO)c1c(F)c(F)c(F)c(F)c1F | Protein deacetylase HDAC6 (HDAC6, Homo sapiens, UniProt Q9UBN7) | enzyme activity, inhibitor, electrophoretic mobility shift | – | together with: FAM-RHKK(Ac)-NH2 1 µM | 7440 nM
CCCCCN(C)C(=O)Oc1ccccc1C=C1Cc2cc(OC)c(OC)cc2C1=O | Cocaine esterase (CES2, Homo sapiens, UniProt O00748) | inhibitor | – | 3 min preincubation, together with: fluorescein diacetate | 25.7 ± 2.68 nM
Fc1cccc(/C=C/c2c[nH]c3ccc(F)cc23)c1 | Amyloid-beta precursor protein, amyloid-beta peptide (APP, Homo sapiens, UniProt P05067) | Aβ42 oligomerisation, ELISA | – | – | > 20000 nM
CC(C)CNC(=O)CSc1nc2ccc(NC(=O)CSc3ccc(Cl)c(Cl)c3)cc2s1 | Estrogen receptor (ESR1, Homo sapiens, UniProt P03372) | reporter gene, antagonist | HEC-1 transfected ERα luciferase reporter | – | 20000 to 50000 nM
COc1cc2nccc(Oc3ccc(NC(=S)NC4CCC4)c(Cl)c3)c2cc1C(N)=O | Fibroblast growth factor receptor 1 (FGFR1, Homo sapiens, UniProt P11362) | – | – | – | 1100 nM
Cc1n[nH]c(C)c1CCOC(=O)c1cccc2c1oc(=O)n2C | CD28, with B7 (Homo sapiens, UniProt P10747) | luciferase reporter gene, blocker | Jurkat with Raji cells | 5 h | 5200 ± 1300 nM

A few entries again:
SMILES | target | assay | system | setting | IC50
CC(C)C[C@H](NC(=O)c1cc(C(=O)O)cc([C@H]2CCN[C@@H]2C(=O)O)c1)C(=O)O | kainate receptor (rat) | binding, radioligand binding | rat cortical synaptosomes | together with: [3H]kainate | 66000 nM
O=C(NO)c1c(F)c(F)c(F)c(F)c1F | Protein deacetylase HDAC6 (HDAC6, Homo sapiens, UniProt Q9UBN7) | enzyme activity, inhibitor, electrophoretic mobility shift | – | together with: FAM-RHKK(Ac)-NH2 1 µM | 7440 nM
